Results collected from several papers.
Compare with care: the assays were run in different laboratories.

Structure (SMILES)	assay	system	conditions	pKa
Cc1ccc2ccc(C)c(O)c2n1	capillary electrophoresis			10.7
Cc1cc(=O)[nH]c(SCC(=O)c2ccc(S(N)(=O)=O)c(Cl)c2)n1			sulfonamide group	8.9
Cc1cc(O)c2nc(C)ccc2c1	capillary electrophoresis			10
NCC1CC2(CC2)CO1 (stereo not shown)	potentiometric titration	methanol-water	25 °C, amine hydrochloride	8.9
Cc1ccc2c(Cl)ccc(O)c2n1	capillary electrophoresis			9.2
NS(=O)(=O)c1c(F)c(F)c(S(=O)(=O)CCO)c(NC2CCCCCCC2)c1F			sulfonamide group	8.01
CC(C)(C)N1Cc2cccc(n2)CN(C(C)(C)C)Cc2cc(-c3nc4ccccc4s3)cc(n2)C1		0.1 M NaCl	25 °C, H2L2+ deprotonation	7.44
NS(=O)(=O)c1ccc(SCCO)cc1			sulfonamide group	9.96
Cc1cc(NC(=O)c2ccc(Br)cc2)n[nH]1				2.19
NS(=O)(=O)c1c(F)c(F)c(S(=O)(=O)CCc2ccccc2)c(N2CCOCC2)c1F			sulfonamide group	7.87
O=C(O)C1CC2(CCC2)C1	potentiometric titration	methanol-water	25 °C, carboxylic acid	4.6
FC(F)(F)C1(c2ccc(CN3CCN(C(c4ccccc4)c4ccc(Cl)cc4)CC3)cc2)CC1 (stereo not shown)	acid-base titration			3.41
CNc1c(F)c(S(N)(=O)=O)c(F)c(F)c1S(=O)(=O)CCc1ccccc1			sulfonamide group	7.87
NCC1CC2(CCC2)CO1 (stereo not shown)	potentiometric titration	methanol-water	25 °C, amine hydrochloride	9.5
c1cc2nc(c1)CSCc1cccc(n1)CSC2		0.1 M NaCl	25 °C, H2L2+ deprotonation	4.33
O=C(NC[C@H](Cc1ccc(F)cc1)N1CCC(O)(C(F)(F)F)CC1)C1(c2ccc(Cl)cc2)CCCC1	UV-metric			5.91

Structure (SMILES)	assay	system	conditions	pKa
Cc1ccc2c(F)ccc(O)c2n1	capillary electrophoresis			9.4
NCC1CC2(CC2)C1	potentiometric titration	methanol-water	25 °C, amine hydrochloride	10.1
NS(=O)(=O)c1c(F)c(F)c(SCCc2ccccc2)c(F)c1N1CCOCC1			sulfonamide group	8.67
Cc1ccc2ccc(F)c(O)c2n1	capillary electrophoresis			9
CC(C)(C)Nc1c(F)c(S(N)(=O)=O)c(F)c(F)c1S(=O)(=O)CCc1ccccc1			sulfonamide group	7.87
Cc1ccc2c(C)ccc(O)c2n1	capillary electrophoresis			10.5
O=C(NC[C@H](Cc1ccccc1)N1CCC(O)(C(F)(F)F)CC1)C1(c2ccc(Cl)cc2)CCCC1	UV-metric			6.16
Cc1ccc2cc(F)cc(O)c2n1	capillary electrophoresis			8.9
O=C(O)CNC(=O)c1nc(Cl)c2ccccc2c1O			second acidic	6.5
NS(=O)(=O)c1c(F)c(F)c(N2CCOCC2)c(F)c1F			sulfonamide group	8.61
O=C(O)C12CC(c3ccccc3)(C1)C2(F)F	potentiometric titration	methanol-water 1:4 with 150 mM NaCl	25 °C, carboxylic acid group	3.9
O=C(O)C1CC2(CCC2)CO1 (stereo not shown)	potentiometric titration	methanol-water	25 °C, carboxylic acid	3.7
Cc1ccc2ccc([N+](=O)[O-])c(O)c2n1	capillary electrophoresis			6.65
NCC1CC2(C1)CC(F)(F)C2	potentiometric titration	methanol-water	25 °C, amine hydrochloride	10.3
c1cc2nc(c1)CSCc1cc(-c3nc4ccccc4s3)cc(n1)CSC2		0.1 M NaCl	25 °C, HL+ deprotonation	6.49

Repeated from above:
Structure (SMILES)	assay	system	conditions	pKa
O=C(O)C12CC(c3ccccc3)(C1)C2(F)F	potentiometric titration	methanol-water 1:4 with 150 mM NaCl	25 °C, carboxylic acid group	3.9
NCC1CC2(C1)CC(F)(F)C2	potentiometric titration	methanol-water	25 °C, amine hydrochloride	10.3
